Published values collected from several papers.
A part holds a random share of what one study measured. Several values in a cell are separate wells, animals, samples, runs or records.
Chain of UniProt P42336 (whole entry, unmodified, looked up): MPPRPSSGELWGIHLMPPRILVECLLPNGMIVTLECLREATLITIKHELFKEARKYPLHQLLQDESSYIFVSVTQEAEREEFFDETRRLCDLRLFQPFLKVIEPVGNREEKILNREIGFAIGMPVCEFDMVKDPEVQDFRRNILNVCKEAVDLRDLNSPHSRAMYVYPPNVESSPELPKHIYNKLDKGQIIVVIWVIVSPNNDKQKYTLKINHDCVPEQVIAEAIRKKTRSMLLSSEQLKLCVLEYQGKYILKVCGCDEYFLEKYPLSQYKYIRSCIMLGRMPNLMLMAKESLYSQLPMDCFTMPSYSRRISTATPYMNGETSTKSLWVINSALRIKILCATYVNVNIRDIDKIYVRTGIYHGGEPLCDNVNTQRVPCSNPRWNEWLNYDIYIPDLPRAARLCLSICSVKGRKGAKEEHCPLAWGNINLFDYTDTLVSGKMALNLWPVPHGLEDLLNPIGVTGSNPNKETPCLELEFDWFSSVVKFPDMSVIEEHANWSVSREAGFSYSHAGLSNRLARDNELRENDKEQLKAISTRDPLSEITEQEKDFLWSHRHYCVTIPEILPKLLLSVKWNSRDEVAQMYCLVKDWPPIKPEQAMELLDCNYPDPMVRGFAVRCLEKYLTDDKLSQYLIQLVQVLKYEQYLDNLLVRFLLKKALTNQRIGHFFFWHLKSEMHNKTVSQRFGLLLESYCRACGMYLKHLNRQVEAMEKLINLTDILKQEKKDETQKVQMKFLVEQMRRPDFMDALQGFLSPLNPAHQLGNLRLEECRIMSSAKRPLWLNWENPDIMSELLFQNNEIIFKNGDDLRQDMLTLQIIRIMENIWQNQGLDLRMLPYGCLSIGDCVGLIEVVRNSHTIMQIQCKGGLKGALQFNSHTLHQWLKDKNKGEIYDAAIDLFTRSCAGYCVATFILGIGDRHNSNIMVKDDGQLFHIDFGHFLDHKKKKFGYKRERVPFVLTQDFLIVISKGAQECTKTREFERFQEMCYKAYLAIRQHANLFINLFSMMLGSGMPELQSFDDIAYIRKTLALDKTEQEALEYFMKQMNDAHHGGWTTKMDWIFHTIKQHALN
Chain of UniProt Q9Y2H9 (whole entry, looked up): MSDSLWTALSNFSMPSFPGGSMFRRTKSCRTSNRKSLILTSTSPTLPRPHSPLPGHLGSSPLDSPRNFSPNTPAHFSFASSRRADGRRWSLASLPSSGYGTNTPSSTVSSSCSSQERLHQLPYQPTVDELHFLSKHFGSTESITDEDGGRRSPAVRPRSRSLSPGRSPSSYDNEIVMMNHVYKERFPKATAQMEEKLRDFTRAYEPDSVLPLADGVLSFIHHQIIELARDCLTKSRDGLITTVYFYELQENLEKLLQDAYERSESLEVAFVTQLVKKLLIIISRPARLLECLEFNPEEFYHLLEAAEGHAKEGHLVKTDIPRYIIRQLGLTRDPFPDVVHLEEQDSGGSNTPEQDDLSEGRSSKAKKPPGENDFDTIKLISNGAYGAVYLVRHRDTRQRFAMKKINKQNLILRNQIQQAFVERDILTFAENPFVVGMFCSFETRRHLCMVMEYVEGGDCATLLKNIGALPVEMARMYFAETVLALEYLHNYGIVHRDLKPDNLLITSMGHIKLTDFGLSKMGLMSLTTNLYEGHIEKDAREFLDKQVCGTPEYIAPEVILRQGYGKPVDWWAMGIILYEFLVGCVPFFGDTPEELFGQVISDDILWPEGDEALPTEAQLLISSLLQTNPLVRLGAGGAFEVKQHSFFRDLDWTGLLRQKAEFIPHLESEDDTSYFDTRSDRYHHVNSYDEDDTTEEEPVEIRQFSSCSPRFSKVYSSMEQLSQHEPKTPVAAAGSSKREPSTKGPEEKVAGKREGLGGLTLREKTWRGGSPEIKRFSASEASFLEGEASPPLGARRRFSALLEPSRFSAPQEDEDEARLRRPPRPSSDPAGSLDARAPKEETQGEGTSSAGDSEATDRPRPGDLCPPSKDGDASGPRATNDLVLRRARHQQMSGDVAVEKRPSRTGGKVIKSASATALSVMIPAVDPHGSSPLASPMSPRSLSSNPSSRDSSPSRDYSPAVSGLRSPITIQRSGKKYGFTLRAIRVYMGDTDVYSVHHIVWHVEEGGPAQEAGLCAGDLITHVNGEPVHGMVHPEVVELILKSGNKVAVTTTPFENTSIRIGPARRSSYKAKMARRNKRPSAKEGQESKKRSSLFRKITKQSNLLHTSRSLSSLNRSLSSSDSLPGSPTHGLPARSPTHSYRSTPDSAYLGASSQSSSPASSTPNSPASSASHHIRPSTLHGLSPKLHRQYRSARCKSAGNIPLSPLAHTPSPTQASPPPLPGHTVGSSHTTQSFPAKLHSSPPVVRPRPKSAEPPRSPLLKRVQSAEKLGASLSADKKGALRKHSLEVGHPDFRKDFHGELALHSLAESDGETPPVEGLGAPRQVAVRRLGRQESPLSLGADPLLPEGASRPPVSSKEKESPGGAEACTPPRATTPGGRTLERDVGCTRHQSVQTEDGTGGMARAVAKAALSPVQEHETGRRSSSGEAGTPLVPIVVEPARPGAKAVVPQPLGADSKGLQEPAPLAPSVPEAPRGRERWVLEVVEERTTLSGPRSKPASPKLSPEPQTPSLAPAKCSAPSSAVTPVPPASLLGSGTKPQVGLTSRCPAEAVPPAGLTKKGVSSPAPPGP
Chain of UniProt P54646 (whole entry, looked up): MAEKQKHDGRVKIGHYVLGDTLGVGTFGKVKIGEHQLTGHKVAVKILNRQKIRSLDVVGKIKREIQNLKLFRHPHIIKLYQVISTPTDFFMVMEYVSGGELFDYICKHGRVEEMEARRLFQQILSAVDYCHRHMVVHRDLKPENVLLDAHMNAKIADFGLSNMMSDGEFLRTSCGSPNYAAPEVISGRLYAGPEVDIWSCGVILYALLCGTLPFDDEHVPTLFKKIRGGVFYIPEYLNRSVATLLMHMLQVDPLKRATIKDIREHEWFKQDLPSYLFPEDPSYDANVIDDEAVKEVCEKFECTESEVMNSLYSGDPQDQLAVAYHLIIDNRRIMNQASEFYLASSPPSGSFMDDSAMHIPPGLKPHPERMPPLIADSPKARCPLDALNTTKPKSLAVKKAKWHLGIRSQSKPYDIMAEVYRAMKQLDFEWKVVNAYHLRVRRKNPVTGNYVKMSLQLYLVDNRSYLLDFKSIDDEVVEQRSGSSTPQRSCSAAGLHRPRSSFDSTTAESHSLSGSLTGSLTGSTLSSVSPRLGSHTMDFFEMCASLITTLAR
Chain of UniProt P10721 (whole entry, unmodified, looked up): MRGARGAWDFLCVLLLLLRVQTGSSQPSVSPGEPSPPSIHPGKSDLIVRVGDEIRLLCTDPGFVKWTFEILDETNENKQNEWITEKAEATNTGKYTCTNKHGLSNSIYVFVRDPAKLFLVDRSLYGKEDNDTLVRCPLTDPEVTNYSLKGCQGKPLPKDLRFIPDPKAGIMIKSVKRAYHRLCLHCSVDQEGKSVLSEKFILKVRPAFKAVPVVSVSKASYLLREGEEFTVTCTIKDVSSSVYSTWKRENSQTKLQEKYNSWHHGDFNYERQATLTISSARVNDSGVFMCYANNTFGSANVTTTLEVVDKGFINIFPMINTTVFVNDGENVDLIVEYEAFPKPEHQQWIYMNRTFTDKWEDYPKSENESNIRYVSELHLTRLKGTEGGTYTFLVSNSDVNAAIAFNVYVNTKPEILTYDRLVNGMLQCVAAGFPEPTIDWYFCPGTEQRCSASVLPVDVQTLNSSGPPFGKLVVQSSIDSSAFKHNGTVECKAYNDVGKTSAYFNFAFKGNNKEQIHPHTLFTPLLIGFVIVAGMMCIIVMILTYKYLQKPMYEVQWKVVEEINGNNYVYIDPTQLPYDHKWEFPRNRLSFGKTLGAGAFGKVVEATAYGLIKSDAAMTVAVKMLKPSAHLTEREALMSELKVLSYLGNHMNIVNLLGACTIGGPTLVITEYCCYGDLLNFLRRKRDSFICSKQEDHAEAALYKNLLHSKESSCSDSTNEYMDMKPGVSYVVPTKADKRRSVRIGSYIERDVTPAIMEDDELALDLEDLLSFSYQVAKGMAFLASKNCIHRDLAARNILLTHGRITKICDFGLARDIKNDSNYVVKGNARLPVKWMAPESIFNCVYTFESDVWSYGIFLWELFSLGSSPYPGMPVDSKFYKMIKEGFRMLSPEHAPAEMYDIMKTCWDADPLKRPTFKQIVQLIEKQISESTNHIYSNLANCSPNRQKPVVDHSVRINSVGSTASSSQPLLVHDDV
Chain of UniProt Q6P3R8 (whole entry, looked up): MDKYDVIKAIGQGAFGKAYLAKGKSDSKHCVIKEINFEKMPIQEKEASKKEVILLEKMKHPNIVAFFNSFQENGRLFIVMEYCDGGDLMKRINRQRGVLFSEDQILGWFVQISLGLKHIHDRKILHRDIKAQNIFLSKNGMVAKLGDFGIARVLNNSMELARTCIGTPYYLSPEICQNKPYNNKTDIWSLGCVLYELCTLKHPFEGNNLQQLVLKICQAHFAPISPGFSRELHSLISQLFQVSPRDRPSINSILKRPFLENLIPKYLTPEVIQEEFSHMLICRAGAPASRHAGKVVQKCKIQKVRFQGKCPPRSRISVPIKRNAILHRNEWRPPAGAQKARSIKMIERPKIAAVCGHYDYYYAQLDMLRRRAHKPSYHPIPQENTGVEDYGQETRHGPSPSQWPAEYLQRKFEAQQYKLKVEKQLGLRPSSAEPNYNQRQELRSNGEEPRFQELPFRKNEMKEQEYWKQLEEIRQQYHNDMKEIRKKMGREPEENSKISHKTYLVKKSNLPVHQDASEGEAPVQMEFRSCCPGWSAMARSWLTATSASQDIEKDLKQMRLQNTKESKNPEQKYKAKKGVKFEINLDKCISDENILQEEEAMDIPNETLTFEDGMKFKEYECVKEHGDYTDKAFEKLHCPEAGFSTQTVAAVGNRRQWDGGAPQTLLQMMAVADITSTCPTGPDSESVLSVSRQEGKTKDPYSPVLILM

Set 1 — read-out: cell-free assay; technique: competition with immobilised ligand; tested at: 1 µM; quantity: remaining binding
SMILES: Cn1cncc1[C@@](O)(COc1ccc(C#N)cc1-c1ccc(OC(F)(F)F)cc1)c1ccc(C#N)cc1
CAMKK1 (Homo sapiens, UniProt Q8N5S9): 100%
Non-receptor tyrosine-protein kinase TYK2, JH1 (TYK2, Homo sapiens, UniProt P29597): 92%
AXL (Homo sapiens, UniProt P30530): 100%
FGFR1 (Homo sapiens, UniProt P11362): 100%
KIT (Homo sapiens, UniProt P10721, D816H): 100%
Ribosomal protein S6 kinase alpha-2, N-terminal kinase domain (RPS6KA2, Homo sapiens, UniProt Q15349): 100%
NEK1 (Homo sapiens, UniProt Q96PY6): 100%
MET (Homo sapiens, UniProt P08581, M1250T): 97%
ALK (Homo sapiens, UniProt Q9UM73, C1156Y): 98%
GRK3 (Homo sapiens, UniProt P35626): 100%
MAST1 (Homo sapiens, UniProt Q9Y2H9): 100%
PRKAA2 (Homo sapiens, UniProt P54646): 87%
Receptor-type tyrosine-protein kinase FLT3, autoinhibited (FLT3, Homo sapiens, UniProt P36888): 100%
FYN (Homo sapiens, UniProt P06241): 97%
TIE1 (Homo sapiens, UniProt P35590): 100%
PIK3CA (Homo sapiens, UniProt P42336, E542K): 81%
NEK5 (Homo sapiens, UniProt Q6P3R8): 98%

Set 2 — cell line: HEK-293T/ACE2; read-out: pseudovirus infection; technique: counter-screen; organism: VSV pseudotyped with VSV-G; tested at: 10 µM; time: 16 h; relative to: vehicle-treated; quantity: GFP-positive cells
N[C@@H]1CON=C1O: 121%
C#C[C@]1(O)CC[C@H]2[C@@H]3CCc4cc(OC)ccc4[C@H]3CC[C@@]21C: 124%
CC(N)C12CC3CC(CC(C3)C1)C2 (centres unmarked): 112%
CO[C@H]1/C=C/O[C@@]2(C)Oc3c(C)c(O)c4c(O)c(c(/C=N/N5CCN(C6CCCC6)CC5)c(O)c4c3C2=O)NC(=O)/C(C)=C\C=C\[C@H](C)[C@H](O)[C@@H](C)[C@@H](O)[C@@H](C)[C@H](OC(C)=O)[C@@H]1C: 90%
CC(S)C(=O)NCC(=O)O (centres unmarked): 99.3%
CN(C)CCn1nnnc1SCC1=C(C(=O)O)N2C(=O)[C@@H](NC(=O)Cc3csc(N)n3)[C@H]2SC1: 108%
CCCCC1=NC2(CCCC2)C(=O)N1Cc1ccc(-c2ccccc2-c2nnn[nH]2)cc1: 97.3%
CC(C)(C)NCC(O)c1cc(O)cc(O)c1 (centres unmarked): 105%
C[C@H](O)C(=O)Nc1c(I)c(C(=O)NC(CO)CO)c(I)c(C(=O)NC(CO)CO)c1I: 109%
Cc1ccnc2c1NC(=O)c1cccnc1N2C1CC1: 93%
COc1ccc(OC)c(C(O)CNC(=O)CN)c1 (centres unmarked): 115%

Set 3 — cell line: HEK-293T-ACE2-TMPRSS2; technique: cell count; tested at: 10 µM; quantity: viability
c1cncc(-c2ccnc(N3CCCCC3)n2)c1: 98%
CCCOC1CCCN(C(=O)c2ccc(OC3CCN(Cc4ccccn4)CC3)cc2)C1 (centres unmarked): 104%
O=C(/C(=C/c1cccnc1)c1nc2ccccc2[nH]1)c1ccccc1: 257%
COc1ccc(NC(=O)N2CCCC(CNC(=O)c3cccs3)C2)c(C)c1 (centres unmarked): 105%
CC(=O)NCC(=O)N1CC(F)(F)C[C@H]1c1nc(C2CC2)no1: 93%
CN(CCc1cn[nH]c1)C(=O)c1coc(COc2cccc(F)c2F)n1: 67%
O=C(c1ccc2nc(C3CCCCC3)oc2c1)N1CCN(c2ccccn2)CC1: 111%
Cc1nc2cc(-c3cccc4ccnn34)ccc2s1: 104%
CC(CNC(=O)c1nc(CCS(=O)(=O)c2ccc(Cl)cc2)no1)c1ccccc1 (centres unmarked): 109%
Cc1c(-c2ccnc(N3CCN(C)CC3)n2)cnc2nc(-c3ccccc3)nn12: 104%
CCOC(=O)c1ccc(Nc2nc3nonc3nc2Nc2cccc(C)c2C)cc1: 66%
O=C(CCc1ccccn1)N1CCCC(CNC(=O)C2(c3ccc(Cl)cc3)CC2)C1 (centres unmarked): 109%
O=C(c1ccc(-c2ccnc3[nH]ccc23)o1)N1CCCCC1: 65%
COc1ccc(CCN2CC(NCc3nc(C)c(C)nc3C)CC2=O)cc1 (centres unmarked): 111%
CCN(CC)Cc1c(O)ccc2cc(-c3ccc(Cl)cc3)c(=O)oc12: 76%
O=C(Nc1nc2c(s1)CCC2)c1[nH]nc(C2CC2)c1Br: 74%

Set 4 — organism: Leishmania donovani; quantity: inhibition
Compound: c1ccc(Oc2ccc(Nc3c4c(nc5ccccc35)CCC4)cc2)cc1
parasite killing; DD8, promastigotes; 33.33 µM, 48 h: 100%
parasite growth; DD8 amphotericin B-resistant, promastigotes; 1.66 µM: 54% and 48% and 40% and 42% and 51% and 47%
parasite growth; DD8 amphotericin B-resistant, promastigotes; 0.66 µM: 12% and 20% and 15% and 14%
parasite growth; 8 nM, intracellular, amastigote: 5%
parasite growth; DD8 amphotericin B-resistant, intracellular amastigotes; 0.08 µM: 2% and 5%
parasite growth; 3.33 µM, promastigote: 23%
parasite growth; DD8 amphotericin B-resistant, promastigotes; 6.66 µM: 81% and 83% and 78% and 87% and 88%
parasite growth; 4 µM, intracellular, amastigote: 37%
parasite growth; DD8 amphotericin B-resistant, intracellular amastigotes; 20 µM: 100%

A few entries again (set 3):
CN(CCc1cn[nH]c1)C(=O)c1coc(COc2cccc(F)c2F)n1: 67%
O=C(c1ccc2nc(C3CCCCC3)oc2c1)N1CCN(c2ccccn2)CC1: 111%
Cc1nc2cc(-c3cccc4ccnn34)ccc2s1: 104%
CC(CNC(=O)c1nc(CCS(=O)(=O)c2ccc(Cl)cc2)no1)c1ccccc1 (centres unmarked): 109%
Cc1c(-c2ccnc(N3CCN(C)CC3)n2)cnc2nc(-c3ccccc3)nn12: 104%
CCOC(=O)c1ccc(Nc2nc3nonc3nc2Nc2cccc(C)c2C)cc1: 66%
O=C(CCc1ccccn1)N1CCCC(CNC(=O)C2(c3ccc(Cl)cc3)CC2)C1 (centres unmarked): 109%
O=C(c1ccc(-c2ccnc3[nH]ccc23)o1)N1CCCCC1: 65%
